Experimental data collected from several papers.
A part holds a random share of what one study measured. Changes are numbered by the printed parent chain.

Series 1 — method: RNA Bind-n-Seq; form: RNA; medium: in vitro; tested at: 200 nM; setting: whole 134-nt RNA, ends assumed; added: 150 mM LiCl; baseline: input library; direction: higher = stronger binding; measurement: log2 enrichment; library: 7-deaza-guanosine replaces G
Target: Fragile X messenger ribonucleoprotein 1, C-terminal low-complexity region (Fmr1, Mus musculus, UniProt P35922)
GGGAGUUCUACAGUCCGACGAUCAGUCCUGUGCUACACAUCGUAUGUACCGAAUCGGUUUUUGGAAAAAGGAAAAAAAGGAAAGUAUUAUGUUACGCCGUUCGGAUCUGCACUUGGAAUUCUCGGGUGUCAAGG: -2.59
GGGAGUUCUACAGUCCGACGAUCUCCUCAAGUCCUGUGCUACACAUCGUAUGUACCGAAUCGGUGGUGGAAAGGAAAGUAUUAUGUUACGCCGUUCGGAUCUGCACUUCCAGCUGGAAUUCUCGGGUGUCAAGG: 0.694
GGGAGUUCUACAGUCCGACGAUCACCAUGCAGGUGGGCAUCUUUGGGAAGUGGGGCAAGUGGGGGAUAGGGAGGGGGGUAACACUUUGGGAACAGGUGGUCCCAGGUCGUUUCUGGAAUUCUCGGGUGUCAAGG: 1.4
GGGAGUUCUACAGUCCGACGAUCUAACUUUAGAGGAGGACCUGAUGGAUAUGGCAGUGGACGUGGAUUUGGGGAUGGCUAUAAUGGGUAUGGAGGAGGACCUGGAGGUGGCAAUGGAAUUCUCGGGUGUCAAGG: -0.387
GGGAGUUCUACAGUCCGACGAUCCUGUGCUACACAUCGUAUGUACCGAAUCGGGAAAAAAAGGGAAAAAAAGGGAAAAAAAGGGGAAAGUAUUAUGUUACGCCGUUCGGAUCUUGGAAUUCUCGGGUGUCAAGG: 0.312
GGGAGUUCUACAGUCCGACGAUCAGUCCUGUGCUACACAUCGUAUGUACCGAAUCGGGCCCCGGCCCCGGGGCCCCGGGGAAAGUAUUAUGUUACGCCGUUCGGAUCUGCACUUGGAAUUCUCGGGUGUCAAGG: -3.62
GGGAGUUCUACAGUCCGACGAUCCAAGUCCUGUGCUACACAUCGUAUGUACCGAAUCGGGUGGGUUUGGGAAAAAGGGAAAGUAUUAUGUUACGCCGUUCGGAUCUGCACUUCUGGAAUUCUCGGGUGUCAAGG: -0.845
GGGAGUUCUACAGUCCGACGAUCGUCCUGUGCUACACAUCGUAUGUACCGAAUCGGGGUUUUUGGGGUUUUUGGUUUUUGGGAAAGUAUUAUGUUACGCCGUUCGGAUCUGCAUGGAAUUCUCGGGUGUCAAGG: -1.52
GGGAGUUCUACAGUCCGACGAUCGUCCUGUGCUACACAUCGUAUGUACCGAAUCGGGUUUUUUUGGGAAAAAAAGGGUGGGAAAGUAUUAUGUUACGCCGUUCGGAUCUGCACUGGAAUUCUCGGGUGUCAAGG: -2.39
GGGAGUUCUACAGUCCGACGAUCCACAGACAACACGCACCCACACAGACACAGAGGGAAGGGGUUGGGAUGGGGACAGGGUGCACAGCAGGGCGGGGUAGGACCCCAGCCCCAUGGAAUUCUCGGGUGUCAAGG: 0.281
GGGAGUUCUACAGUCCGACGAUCUAACUUUAGAGGAGGAUCUGAUGGAUAUGGCAGUGGACGUGGAUUUGGGGAUGGCUAUAAUGGGUAUGGAGGAGGACCUGGAGGUGGUAAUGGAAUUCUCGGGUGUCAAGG: 0.767

Series 2 — method: protein binding microarray; form: double-stranded DNA, one strand shown; medium: in vitro; tested at: not given; baseline: not given; direction: higher = stronger binding; measurement: E-score
Target: Histone acetyltransferase KAT6A, both winged helices, GST fusion (KAT6A, Homo sapiens, UniProt Q92794, residues 1-181)
Setting: 8-mer, flanks averaged, mean of 2 arrays, mostly near background
Target sequence (chain): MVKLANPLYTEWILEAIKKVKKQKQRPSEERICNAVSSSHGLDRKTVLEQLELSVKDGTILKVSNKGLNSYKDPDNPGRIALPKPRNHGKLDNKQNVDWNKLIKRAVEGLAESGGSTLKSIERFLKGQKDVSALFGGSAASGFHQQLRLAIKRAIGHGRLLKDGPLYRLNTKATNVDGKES
ATCTGGCC: -0.00988
CTGCTGCC: -0.0647
AATCATTG: -0.233
CTTGCAAC: -0.109
CGAATGAG: 0.141
AGACTATG: -0.0957
CAATTCTG: -0.0986
CTCCGTTC: 0.156
ACTGCGCG: 0.321
GCTACGCC: 0.188
ATCGCGTA: 0.074
CATCGTCA: -0.113
ACAGAGCA: -0.206
GACTTGTA: -0.0418
AAAAAACA: -0.0611
TGCGTCCA: 0.191
ATAGTGAG: -0.143
CCCGGGTC: 0.281
TTACAAAA: 0.0658
ACACGCCG: 0.281
ACTTTCCG: 0.0442
AACAAAAT: -0.0943
CAGCTAGC: -0.0139

Series 3 — method: DHFR PCA, deep sequencing; medium: yeast; added: (+)-ABA 0.032 µM; baseline: wild-type fitted maximum; direction: higher = stronger binding; measurement: relative binding score
Target: ABI1, truncated, D143A, DHFR fusion (Arabidopsis thaliana)
Setting: methotrexate growth selection, single substitutions
Starting sequence: PYL1, truncated, DHFR fusion (Arabidopsis thaliana); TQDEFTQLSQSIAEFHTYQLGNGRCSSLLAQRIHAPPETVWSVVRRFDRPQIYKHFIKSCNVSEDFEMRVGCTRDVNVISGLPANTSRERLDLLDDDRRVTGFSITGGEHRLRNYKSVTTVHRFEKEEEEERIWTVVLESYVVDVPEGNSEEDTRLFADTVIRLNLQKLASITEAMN; partner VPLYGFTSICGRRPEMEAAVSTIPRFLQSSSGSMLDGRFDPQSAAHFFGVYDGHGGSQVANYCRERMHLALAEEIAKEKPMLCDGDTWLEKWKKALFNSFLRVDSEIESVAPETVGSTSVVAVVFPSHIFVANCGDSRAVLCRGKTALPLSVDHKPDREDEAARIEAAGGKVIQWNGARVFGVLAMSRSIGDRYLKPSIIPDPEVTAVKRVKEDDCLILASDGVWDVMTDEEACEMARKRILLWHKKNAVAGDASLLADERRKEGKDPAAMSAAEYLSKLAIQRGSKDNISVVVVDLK
R90P: -5.51%
D97H: 13%
A84C: 38.5%
K126A: 63.6%
S42V: 0.2%
V76C: -1.12%
R74E: -1.51%
R90S: -3.86%
D153M: 0.221%
E89Q: 5.6%
S80N: 35%
R69I: 16.2%
N177L: 18.5%
I172S: -1.36%
V76W: -1.51%
S42F: -1.31%
S11T: 24.1%
V62W: -3%
N22P: 57.3%
V76G: -0.197%

Series 4 — target: CCND3, cyclin fold, Cln2 fusion (human); method: yeast growth competition, sequencing; medium: yeast; setting: weak parent motif; baseline: not given; direction: higher = stronger binding; measurement: normalised enrichment score
Starting sequence: BRCA2 docking peptide (human); PSIKRNLLNEFDR
L8T: 0.101
F11A: 0.212
F11L: -0.0202
S2G: 0.0219
F11V: 0.23
D12N: 0.183
E10R: 0.0845
P1F: 0.11
N9V: 0.123
D12R: 0.174
R5F: 0.0669
N9A: 0.216
L7A: 0.113
E10I: 0.077
R13T: 0.176
R13A: 0.196
R5I: 0.124
R13C: 0.0647
K4S: 0.131
F11M: 0.0302
E10C: 0.0966
N6Q: 0.0458
D12E: 0.198
K4N: 0.07
N6G: -0.038

Series 5 — method: universal PBM; form: double-stranded DNA, one strand shown; medium: in vitro; tested at: 600 nM; direction: higher = stronger binding; measurement: E-score
Target: Sal-like protein 4, full length isoform A (SALL4, Homo sapiens, UniProt Q9UJQ4, residues 1-1053)
Chain of UniProt Q9UJQ4 (whole entry, looked up): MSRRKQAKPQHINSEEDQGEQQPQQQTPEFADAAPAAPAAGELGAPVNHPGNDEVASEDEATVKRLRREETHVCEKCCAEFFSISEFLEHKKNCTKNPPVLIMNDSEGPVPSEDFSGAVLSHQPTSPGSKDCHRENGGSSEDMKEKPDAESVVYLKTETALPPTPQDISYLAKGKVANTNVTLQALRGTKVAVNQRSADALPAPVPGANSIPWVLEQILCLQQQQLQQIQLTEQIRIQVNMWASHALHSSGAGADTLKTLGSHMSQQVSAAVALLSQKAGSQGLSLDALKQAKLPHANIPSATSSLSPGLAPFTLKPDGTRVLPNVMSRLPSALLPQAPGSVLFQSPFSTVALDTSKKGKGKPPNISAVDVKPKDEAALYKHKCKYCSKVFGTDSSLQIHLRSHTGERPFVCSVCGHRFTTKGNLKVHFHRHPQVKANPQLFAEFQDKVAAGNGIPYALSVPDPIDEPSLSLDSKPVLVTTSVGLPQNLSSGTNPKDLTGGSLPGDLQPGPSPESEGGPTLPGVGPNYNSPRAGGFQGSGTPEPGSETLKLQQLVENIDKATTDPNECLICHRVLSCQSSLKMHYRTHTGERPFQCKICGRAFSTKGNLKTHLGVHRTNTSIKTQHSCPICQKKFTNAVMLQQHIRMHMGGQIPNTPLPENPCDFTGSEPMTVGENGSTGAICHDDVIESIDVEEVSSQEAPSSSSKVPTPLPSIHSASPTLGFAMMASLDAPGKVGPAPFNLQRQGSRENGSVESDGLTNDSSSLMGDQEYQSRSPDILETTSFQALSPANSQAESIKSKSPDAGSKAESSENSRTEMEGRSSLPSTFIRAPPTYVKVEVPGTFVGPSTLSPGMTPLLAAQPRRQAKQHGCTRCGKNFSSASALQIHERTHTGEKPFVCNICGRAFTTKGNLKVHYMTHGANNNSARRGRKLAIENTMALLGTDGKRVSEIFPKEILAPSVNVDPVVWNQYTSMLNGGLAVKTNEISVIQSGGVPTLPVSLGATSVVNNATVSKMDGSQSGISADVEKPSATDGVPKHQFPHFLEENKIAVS
Setting: 8-mer, flanks averaged, mean of replicates
AGTGTAAT: 0.252
GCGCCGCC: -0.399
CGTTTCAA: 0.0722
GAATCATC: 0.148
GAATTTTA: 0.303
ACGTTTTA: 0.262
CATTCTCG: 0.0246
CGAATACA: 0.13
CCGAACGG: -0.338
GCAATCAA: 0.0431
GCGAATCC: -0.219
CGGCAACA: -0.0227
AAAAAACG: 0.176
GGAGACTA: -0.0728
AGCGGGCG: -0.327
CGGGCCCG: -0.202
ATAAATAC: 0.352
CGTCATAG: 0.14
AAGGGAAA: 0.205
ACCTCCGT: -0.196
CTACCAAC: 0.105
CCCGCTAA: -0.283
CGTGTCTC: -0.00304
AGGGACGC: -0.21
GCATTCGC: -0.104

Series 6 — target: JUND, bZIP domain (human); method: DHFR protein complementation; medium: yeast; baseline: wild-type JUN-FOS pair; direction: higher = stronger binding; measurement: binding fitness
Setting: single substitutions, most at no-binding floor
Starting sequence: JUN, bZIP domain (human); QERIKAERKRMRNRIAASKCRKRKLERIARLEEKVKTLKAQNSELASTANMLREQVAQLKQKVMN
L31M: -1.28 natural log
L31V: -1.5 natural log
R53N: -1.24 natural log
A46D: -1.36 natural log
K36W: -1.29 natural log
I28H: -1.36 natural log
N42D: -1.5 natural log
Q41P: -1.49 natural log
L45W: -1.36 natural log
Q41G: -1.35 natural log
L52Q: -1.42 natural log
V35W: -1.29 natural log
L38S: -1.38 natural log

Repeated from above (series 3):
A84C: 38.5%
K126A: 63.6%
S42V: 0.2%
V76C: -1.12%
R74E: -1.51%
R90S: -3.86%
D153M: 0.221%
E89Q: 5.6%
S80N: 35%
R69I: 16.2%
N177L: 18.5%
I172S: -1.36%
